# Assay results pooled from the literature.
# Lines come from different studies, so protocols differ. “And” joins repeats or separate records; there may be more than shown. ± marks the error that the study gave.
# ALB: Albumin (ALB, Homo sapiens, UniProt P02768)
# KRAS G12D GDP-bound: GTPase KRas, GDP-bound (KRAS, Homo sapiens, UniProt P01116, G12D)
# uncharacterized protein: uncharacterized protein (Spodoptera exigua, UniProt F1CEY0)
Compound,target or system,assay,test system,conditions,how to read,quantity,value
CC[C@@H]1[C@H](F)C(=O)N[C@@H]1COc1nccc2cc(C(N)=O)c(OC)cc12,"SNF-related serine/threonine-protein kinase (SNRK, Homo sapiens, UniProt Q9NRH2)","ATP-site probe binding, ActivX profiling",THP-1 cell lysate,"0.01 mM, Lys2 site",,inhibition,-4.2%
CCCCCCCCCCCCCCCCCCc1ccc(O)cc1,ALB,fluorescence quenching,,"concentration not given, 37 °C",,number of binding sites,0.91
Cn1cc(-c2ccc(-c3cncc(Cl)c3N3CCC4(CCNC4=O)CC3)cc2)cn1,COLO 205,"gene expression, microarray, item: SULF1 mRNA",,"concentration not given, 6 h",baseline: untreated cells,log2 fold change,1.21
CC1(C)CC2(C)OC(=O)NC2(C)c2ccccc21 (stereo not drawn),"DNA mismatch repair protein Msh6 (Homo sapiens, UniProt P52701)","binding, affinity selection mass spectrometry",,,baseline: other proteins in batch,log fold enrichment,0.0569
NCCCC[C@H](N)C(=O)Nc1ccc2ccccc2c1,"Puromycin-sensitive aminopeptidase (Rattus norvegicus, UniProt F1M9V7)",substrate,,MW 100 kDa,,kcat,36 s⁻¹
O=C(COP(=O)(O)O)[C@@H](O)[C@H](O)[C@H](O)COP(=O)(O)O,"Splicing factor U2AF 65 kDa subunit (Homo sapiens, UniProt P26368)","thermal proteome profiling, item: U2AF2",HepG2 cell lysate,"concentration not given, 57 over 37 °C, mean",baseline: compound over control,thermal stability ratio,0.523
NC/C(=C\F)COc1cccc(Cn2c(=S)[nH]c(=O)c3[nH]cnc32)c1,"Amine oxidase copper-containing 3 (Canis lupus familiaris, UniProt A0A8I3MYY3)",inhibitor,dog adipose tissue,0.3333 µM,,inhibition,105%
CCNC(=O)/C=C/c1cccc(Br)c1,"Sodium-dependent neutral amino acid transporter B(0)AT1 (SLC6A19, Homo sapiens, UniProt Q695T7)","inhibitor, L-[14C]leucine uptake",CHO-BC cells,"3 µM, 6 min, unit not given, with: GPNA 3 mM, JPH203 3 µM",baseline: uninhibited cells,remaining transport activity,0.241
N[C@H](CNC(=O)c1ccc(-c2cccc3ccccc23)s1)C(=O)O,"Glutamate receptor ionotropic, NMDA 1, with GluN2C (Grin1, Rattus norvegicus, UniProt P35439)",,,with: glutamate 300 µM,,Hill slope,1.1
Nc1ncnc2c1ncn2[C@@H]1O[C@H](COP(=O)(O)CP(=O)(O)OP(=O)(O)O)[C@@H](O)[C@H]1O,"P2X purinoceptor 1 (P2RX1, Homo sapiens, UniProt P51575, D97A)",calcium influx,,3.16 µM,baseline: ionomycin response,calcium influx,93% and 91.9% and 85.7% and 75.8%
CC[C@H](C)[C@@H]1NC(=O)[C@H](Cc2ccc(-c3ccccc3)cc2)NC(=O)[C@H](COC)NC(=O)[C@@H]2CCCN2C(=O)[C@@H](NC(=O)[C@H](CCCNC(=N)N)NC(=O)[C@H](CCCNC(=N)N)NC(C)=O)CSSC[C@@H](C(=O)N[C@@H](CCCNC(=N)N)C(=O)N[C@@H](CCCNC(=N)N)C(N)=O)NC(=O)[C@H](C(C)C)NC(=O)[C@@H]2CCCN2C(=O)[C@H](CC(=O)O)NC(=O)[C@H](Cc2ccc(O)cc2)NC(=O)[C@H](CO)NC1=O,KRAS G12D GDP-bound,affinity selection mass spectrometry,,"mixture library 3, with: protein titration up to 2.5 µM",lower is stronger binding,lowest bound protein concentration,0.62 µM
COc1cc(-c2[o+]c3cc(O)cc(O)c3cc2O[C@@H]2O[C@H](CO)[C@@H](O)[C@H](O)[C@H]2O)ccc1O,ALB,"binding, fluorescence quenching",,40 °C,,Gibbs free energy,-5.83 kcal/mol
N#Cc1ccc2c(-c3ccncc3)c(-c3ccc(F)cc3)nn2c1,"Carbon catabolite-derepressing protein kinase (SNF1, Candida albicans, UniProt P52497)","kinase binding, competitor, MIB/MS competition, item: SNF1",Candida albicans cell lysate,100 nM,baseline: DMSO,log2 fold change,-0.0788
O=c1nc(SCc2cc(F)cc(C(F)(F)F)c2)nc(SCc2csc3ccc(Cl)cc23)[nH]1,"DNA topoisomerase 2-alpha (TOP2A, Homo sapiens, UniProt P11388)",DNA cleavage,,"1.95 µM, replicate 2",,linear DNA,0%
CC[C@H](C)[C@@H]1NC(=O)[C@H](Cc2ccc(-c3ccccc3)cc2)NC(=O)[C@H](CC(C)C)NC(=O)[C@@H]2[C@@H](c3ccccc3)CCN2C(=O)[C@@H](NC(=O)[C@H](CCCNC(=N)N)NC(=O)[C@H](CCCNC(=N)N)NC(C)=O)CSSC[C@@H](C(=O)N[C@@H](CCCNC(=N)N)C(=O)N[C@@H](CCCNC(=N)N)C(N)=O)NC(=O)[C@H](C(C)C)NC(=O)[C@@H]2CCCN2C(=O)[C@H](CC(=O)O)NC(=O)[C@H](Cc2ccc(O)cc2)NC(=O)[C@H](CO)NC1=O,KRAS G12D GDP-bound,affinity selection mass spectrometry,,"mixture library 3, with: protein titration up to 2.5 µM",lower is stronger binding,lowest bound protein concentration,0.04 µM
CC(C)C[C@H](NC(=O)C[C@H](O)[C@H](CC(C)C)NC(=O)[C@H](Cc1c[nH]cn1)NC(=O)CNC(=O)[C@@H](NC(=O)[C@H](C)NC(=O)[C@H](Cc1c[nH]c2ccccc12)NC(=O)[C@H](CCC(N)=O)NC(=O)[C@@H](Cc1ccccc1)NC(=O)COCCOCCNC(=O)CCC(C(=O)O)N1CCN(CC(=O)O)CCN(CC(=O)O)CCN(CC(=O)O)CC1)C(C)C)C(N)=O (stereo partly drawn) [lutetium-177 labelled],,,"BALB/c nu/nu mice, carcass","500 pmol, 1 h, with: PA 300 µg",,tissue uptake,3 ± 1 %ID
Cc1cn([C@H]2C[C@H](N=[N+]=[N-])[C@@H](CO)O2)c(=O)[nH]c1=O,"UDP-glucuronosyltransferase 2B7 (UGT2B7, Homo sapiens, UniProt P16662)","glucuronidation, substrate",washed microsomes,with: additional fatty acids,,Vmax,17 ± 10 pmol/min/mg protein
CCCCCCCCCCC,uncharacterized protein,"binding, competitor, fluorescence displacement",,"20 µM, pH 7.4, with: 1-NPN 20 µM",baseline: 1-NPN alone,relative fluorescence,60.9%
[O-][S+]1CCCCS1 (stereo not drawn),"Superoxide dismutase [Cu-Zn] (SOD1, Homo sapiens, UniProt P00441, G94A)",LC-MS,human whole blood,"500 µM, 1 h, 37 °C",,SOD1 monomer fraction,41%
COc1ccc(F)cc1C(=O)NCc1ccc(-c2nn([C@@H](C)C(F)(F)F)c(N)c2C(N)=O)cc1,"Cyclin-dependent kinase 5, with p25 (CDK5, Homo sapiens, UniProt Q00535)","kinase activity, inhibitor, HotSpot radiometric",,"1000 nM, with: ATP at Km",,remaining activity,87.2 ± 0.6%
C=CC(=O)N1CCC(COCC(=O)N2CCN(c3nc(-c4cnc(N)nc4C(F)F)nc(N4CCOC[C@@H]4C)n3)CC2)CC1,"Tyrosine-protein kinase JAK1, JH2 pseudokinase domain (JAK1, Homo sapiens, UniProt P23458)",KINOMEscan,,1 µM,baseline: DMSO control,remaining binding,1.2%
[H]/N=C(/N)NCC(=O)O,"Sodium- and chloride-dependent taurine transporter (SLC6A6, Homo sapiens, UniProt P31641, Y138A)","binding, microscale thermophoresis",,"250 µM, room temperature, with: 50 nM labelled protein",higher = more binding,normalised MST signal,-0.0168
CC[C@@H](C)[C@@H](NC(=O)[C@@H](Cc1ccc(O)cc1)NC(=O)[C@H]1CCCN1C(=O)[C@@H](CCCNC(=N)N)NC(=O)[C@H](N)Cc1c[nH]cn1)C(=O)N[C@H](C)C(=O)N[C@H](Cc1c[nH]cn1)C(=O)N[C@H](CCCNC(=N)N)C(=O)N[C@@H](C(=O)N[C@H](Cc1ccc(O)cc1)C(=O)N[C@H](CO)C(=O)N[C@H](Cc1ccccc1)C(N)=O)C(C)C,"Transferrin receptor protein 1 (Tfrc, Mus musculus, UniProt Q62351)",flow cytometry,MC-38,"48 h, unit not given",baseline: 0 h,surface expression,0.479 and 0.501
C#Cc1c(F)ccc2cc(O)cc(-c3ncc4c(N5CC6CCC(C5)N6)nc(OC[C@@]56CCCN5C[C@H](F)C6)nc4c3F)c12,"GTPase KRas, GDP-bound (KRAS, Homo sapiens, UniProt P01116, G12V)",SPR,,,,dissociation rate constant koff,0.00136 ± 0.0016 s⁻¹
C1CCCC1.C1CCCC1.[Cl][W][Cl],ALB,"binding, fluorescence quenching",,317 K,,Gibbs free energy change,-5.37 kcal/mol
CN1CCN(c2cnc3c(cc(C(=O)NCc4ccc(Cl)cc4)c(=O)n3CC(=O)N3CC(C)(F)C3)n2)C1=O,"DNA polymerase catalytic subunit (Human cytomegalovirus, UniProt P08546)","enzyme activity, inhibitor",,,,Hill slope,1
CC[C@H](C)[C@H](NC(=O)[C@H](CCCCN)NC(=O)[C@@H](NC(=O)[C@H](CCCCN)NC(=O)[C@H](CCCCN)NC(=O)CNC(=O)[C@H](CO)NC(=O)[C@H](C)NC(=O)[C@@H](NC(=O)[C@H](Cc1c[nH]cn1)NC(=O)[C@H](Cc1ccccc1)NC(=O)CN)[C@@H](C)O)C(C)C)C(=O)N[C@@H](C)C(=O)N[C@@H](CCCCN)C(=O)N[C@@H](CCC(=O)O)C(=O)N[C@@H](CO)C(=O)N[C@@H](CC(C)C)C(=O)N[C@@H](CC(=O)O)C(=O)N[C@@H](CCCCN)C(=O)N[C@H](C(=O)N[C@@H](CCCCN)C(=O)N[C@@H](CC(N)=O)C(=O)N[C@@H](Cc1ccccc1)C(=O)N[C@@H](Cc1ccccc1)C(=O)O)C(C)C,human RAD51 F86E monomer,ITC,,"pH 7.4, 25 °C, 5 µM protein",,ΔH,-11.5 ± 2.5 kcal/mol
CC(C(=O)Nc1c(F)cccc1F)N1CCN(c2ccccc2)CC1 (stereo not drawn),"Short transient receptor potential channel 3 (TRPC3, Homo sapiens, UniProt Q13507)","ion current, GCaMP6 calcium imaging",HEK293 transfected,"20 µM, unit not given, with: 50 µM OAG",baseline: control,peak Ca2+ influx,0.97 ± 0.09
CC(=O)N[C@H](C(=O)N1C[C@H](O)C[C@H]1C(=O)NCc1ccc(-c2scnc2C)cc1)C(C)(C)SCCCCCCNC(=O)C[C@@H]1N=C(c2ccc(Cl)cc2)c2c(sc(C)c2C)-n2c(C)nnc21,"von Hippel-Lindau disease tumor suppressor, with elongin B/C (VHL, Homo sapiens, UniProt P40337)",ITC,,"25 °C, binary",,ΔH,-6.7 ± 0.4 kcal/mol
C=CC(C)(O)CCC=C(C)C (stereo not drawn),uncharacterized protein,"binding, competitor, fluorescence displacement",,"20 µM, pH 7.4, with: 1-NPN 20 µM",baseline: 1-NPN alone,relative fluorescence,63%
Nc1nc2c(ncn2[C@@H]2O[C@H](COP(=O)(O)O)[C@@H](O)[C@H]2O)c(=O)[nH]1,"GUK1 (Homo sapiens, UniProt Q16774, S37P)","enzyme activity, NADH-coupled",,7.812 µM,,reaction rate,0.135 s⁻¹ and 0.726 s⁻¹ and 0.311 s⁻¹
N[C@H](CNC(=O)c1cc(Br)c(-c2ccccc2F)s1)C(=O)O,"Glutamate receptor ionotropic, NMDA 1, with GluN2C (Grin1, Rattus norvegicus, UniProt P35439, Y692L)",receptor activation,rat,with: glutamate 300 µM,,log EC50,-1.09 µM
CC(=O)OC/C=C(\C)CCC=C(C)C,uncharacterized protein,"binding, competitor, fluorescence displacement",,"20 µM, pH 7.4, with: 1-NPN 20 µM",baseline: 1-NPN alone,relative fluorescence,62.6%

# Some of these lines once more:
Compound,target or system,assay,test system,conditions,how to read,quantity,value
NCCCC[C@H](N)C(=O)Nc1ccc2ccccc2c1,"Puromycin-sensitive aminopeptidase (Rattus norvegicus, UniProt F1M9V7)",substrate,,MW 100 kDa,,kcat,36 s⁻¹
CCCCCCCCCCCCCCCCCCc1ccc(O)cc1,ALB,fluorescence quenching,,"concentration not given, 37 °C",,number of binding sites,0.91
